Measurements collected from several papers.
A part holds a random share of what one study measured.

Study 1 — technique: protein-binding microarray; molecule type: double-stranded DNA, one strand shown; matrix: in vitro; tested at: 2540 nM top; notes: 60-bp whole probe; added: salmon DNA 0.4 mg/ml; relative to: random background probes; reading: higher = stronger binding; constant ends, left off below: GCCTAGCAC … GTCTTGATTCGCTTGACGCTGCTG
Target: Interferon regulatory factor 3, full length, phosphomimetic (IRF3, Homo sapiens, UniProt Q14653, residues 1-427, S386D/S396D/S398D/S402D/T404D/S405D)
Residues (chain): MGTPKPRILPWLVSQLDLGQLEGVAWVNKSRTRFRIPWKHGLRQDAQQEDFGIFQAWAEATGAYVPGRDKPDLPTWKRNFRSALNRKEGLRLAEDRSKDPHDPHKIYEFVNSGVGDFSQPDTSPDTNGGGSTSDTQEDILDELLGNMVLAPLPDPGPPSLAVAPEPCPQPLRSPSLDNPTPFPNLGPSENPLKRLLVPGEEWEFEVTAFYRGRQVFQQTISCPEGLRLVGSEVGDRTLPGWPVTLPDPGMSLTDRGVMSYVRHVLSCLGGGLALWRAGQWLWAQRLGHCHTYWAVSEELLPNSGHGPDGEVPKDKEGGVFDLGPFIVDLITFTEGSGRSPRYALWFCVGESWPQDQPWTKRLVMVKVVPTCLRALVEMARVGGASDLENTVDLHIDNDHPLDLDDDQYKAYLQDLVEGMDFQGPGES
| Sequence | fitted relative affinity |
| --- | --- |
| CCTCTTCTGGATCTCAGACTGTGCTAG | 1.87 z-score |
| TCACCACCCACTCTGGCACTGTGCTAG | -0.0609 z-score |
| GACGATTTCGTGTATCGAGACGTGCTA | 1.09 z-score |
| GACGGTATCGACTTACGGGACGTGCTA | 1.06 z-score |
| TTAGGTATCCGACTGCTTTAGTGCTAG | 1.95 z-score |
| GACGGTATCGGACCGGGGACGTGCTAG | 0.826 z-score |
| TGGAAACTCGTATGTGACCTTGTGCTA | -0.258 z-score |
| TTAGGTTTCGGTATCGTTTAGTGCTAG | 8.45 z-score |
| ATCTTCATGAAGTTTTAATAAGTGCTA | 0.221 z-score |
| ACATATATACAGAGATAGATGTGCTAG | 0.669 z-score |
| TTAGAACTGGGGCTTCGATTAGTGCTA | -0.981 z-score |
| GAACATTTCAATTAGAAAAAGTGCTAG | 0.99 z-score |
| GCCTACTCGCTCGTCCGGAGGTGCTAG | 0.607 z-score |
| GACGGTCTCCTTATCCTGTCGTGCTAG | 2.94 z-score |
| GACGGACTGGGTTTCGGAACGTGCTAG | 3.19 z-score |
| GAGGGTATCGGTTTCGGGACGTGCTAG | 6.19 z-score |
| TTAGGACTGGGTTTCGGTGAGTGCTAG | 1.51 z-score |
| TTACAACTGAGTATCGATTAGTGCTAG | 0.314 z-score |
| TTAGATTGCAGTATCGATTAGTGCTAG | 1.43 z-score |
| GACGATATCAGTATCGAGCCGTGCTAG | 0.904 z-score |

Study 2 — technique: universal PBM; molecule type: double-stranded DNA, one strand shown; matrix: in vitro; tested at: not given; reading: higher = stronger binding
Target: Sal-like protein 4, full length isoform B (SALL4, Homo sapiens, UniProt Q9UJQ4-2, residues 1-616)
Notes: 8-mer, flanks averaged, mean of replicates
Construct (chain): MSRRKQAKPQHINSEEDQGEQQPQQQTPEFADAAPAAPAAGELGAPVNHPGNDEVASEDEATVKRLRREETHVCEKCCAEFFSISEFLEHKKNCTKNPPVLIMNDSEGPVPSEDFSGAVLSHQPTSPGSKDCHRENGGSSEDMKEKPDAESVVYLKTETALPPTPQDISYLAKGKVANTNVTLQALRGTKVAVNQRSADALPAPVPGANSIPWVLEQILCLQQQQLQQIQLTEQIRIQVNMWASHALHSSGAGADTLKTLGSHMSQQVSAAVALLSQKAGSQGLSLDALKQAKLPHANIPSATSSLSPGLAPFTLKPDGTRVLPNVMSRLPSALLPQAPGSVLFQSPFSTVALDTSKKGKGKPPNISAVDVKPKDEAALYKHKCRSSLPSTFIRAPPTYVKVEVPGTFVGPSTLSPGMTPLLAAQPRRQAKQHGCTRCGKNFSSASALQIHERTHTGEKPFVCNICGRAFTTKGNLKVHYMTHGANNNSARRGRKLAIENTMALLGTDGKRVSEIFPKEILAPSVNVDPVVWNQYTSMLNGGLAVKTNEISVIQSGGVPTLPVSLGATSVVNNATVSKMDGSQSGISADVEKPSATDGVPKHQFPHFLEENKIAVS
| Sequence | E-score |
| --- | --- |
| CCATTATA | 0.297 |
| AGACAGTA | 0.0923 |
| AAAAGAAG | 0.179 |
| ATGTCAGG | -0.0336 |
| GACGTGCC | -0.35 |
| ACTCCATG | -0.139 |
| CCTTGAAC | -0.128 |
| CTTCCAAA | 0.178 |
| GCTAAGAA | -0.152 |
| GAAGCTCA | -0.093 |
| CTGCTGTA | 0.0163 |
| CGTGGCCA | -0.222 |
| ACAAATCG | -0.0549 |
| CTATCATC | 0.194 |
| ATAGAAAG | 0.169 |
| ACTTTTGG | 0.058 |
| CTTCTCCC | -0.0591 |
| CAAAGGTC | -0.234 |
| CAGATCGC | -0.22 |
| AGCCGGAT | -0.139 |
| ATAGTCTC | 0.0831 |
| AACACCCC | -0.0546 |
| CTTCCCAC | -0.112 |
| GTAGGGAC | -0.1 |
| ACCCTATG | 0.0769 |

Study 3 — technique: RNA Bind-n-Seq; molecule type: RNA; matrix: in vitro; tested at: 365 nM; relative to: no-protein control; reading: higher = stronger binding
Target: RNA binding protein fox-1 homolog 2, RRM domain, GST-SBP tag (RBFOX2, Homo sapiens, UniProt O43251-10, residues 100-194)
Notes: natural RNA segment, single round, ends assumed
Residues (chain): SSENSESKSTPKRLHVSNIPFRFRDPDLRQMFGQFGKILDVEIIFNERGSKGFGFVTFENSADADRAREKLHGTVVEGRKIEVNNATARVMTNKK
| Sequence | RBNS enrichment (R) |
| --- | --- |
| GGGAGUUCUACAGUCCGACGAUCACUGAGGGCAGGAUGCUCUCCCACCCGGACCCCUCCAGCCAAGCAGCCCUUCAAGUUCUUUUAUUUCUGGGUAACAGAAGUAGACAGACAGGUUACUUGGUGUAUCUUCUUGGAAUUCUCGGGUGCCAA | 0.183 |
| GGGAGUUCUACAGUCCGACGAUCAGACAGGAAGGGAAAAGCAAAUUUCUAAUUCACCAGCAAUAAAAAUUGGAGGAGGCUUGGCCCUCAGCCCUUAUAUCUCUCUCUUUUUCACUCUCUUCCUCCCACCCCCAUGGAAUUCUCGGGUGCCAA | 0.578 |
| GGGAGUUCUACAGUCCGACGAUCGCUGUGCCCCACCUCCAGCCUCACCACCAGGCCAGGAGGCAGCUGGCACAGUGCUCACGCCGCCUUUAUUUAUUGGACCAGAAACACUCACAUGUCACUUCCAGAGGAACUGGAAUUCUCGGGUGCCAA | 0.519 |
| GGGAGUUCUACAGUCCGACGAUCAAAUGAACUUCAGGCUUGAUACAGAUCUUCUCCCUGUUGGUAUUACAUAUAUAGAGAUAAUUCUCAAUGCCUAAUUAAUAUACUUAUACAUUUGUUAAGGUAUGCGCAUAUGGAAUUCUCGGGUGCCAA | 0.278 |
| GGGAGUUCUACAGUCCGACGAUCCUUCAUGGACCAACUUGCAUUCCAUCAGUUUUAUAUUAGCCUUUCUGCAGUUAGAACAUGGAUGUUUCUUCUUUGAUUAUCAAAAACACAAAAACAGAGAGCAAGCCCGAUGGAAUUCUCGGGUGCCAA | 0.404 |
| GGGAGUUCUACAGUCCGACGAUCAGCAACUAGUUCACUCAUAGUCUACAGUUUUAUGUUCUUUUGGCUUAAAGUUAAAAGAAAAUACAGAAUACCAGCAGAACUUGAUUAUUGUUUUCUGUCCAAACUUCUUAUGGAAUUCUCGGGUGCCAA | 0.267 |
| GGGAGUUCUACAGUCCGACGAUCAAAAUGAAGAAAAUCAACAAGGACCGAGCAAAAGACGAGUGAGCCUUUUAGGGGCUCAUUUAAAAAGAGAGCAAGCUAGAAAGAAAAAGAAAGGACUGUCCGUCUCCCUCUGGAAUUCUCGGGUGCCAA | 0.463 |
| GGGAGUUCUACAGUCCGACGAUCUCUCUCUCCUGGAGUCUGAAGCCUGCAGGUCCGGGGAGGAGGUUCGGGAUUCCCUGGUGGGCCUCGACGUCCCUUGGAUCAGAGGUCAUCCCUUCCUCCUCUCCUGGAAAUGGAAUUCUCGGGUGCCAA | 0.331 |
| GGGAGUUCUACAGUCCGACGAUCGUUGGGAGGCAGGUCGGGCUGCCAGCCCAGCUGGCCGGAAGGAGACUGUGGUUUUUGUGUGUGUGGACAGCCCGGGAGCUUUGAGACAGGUGCCUGGGGCUGGCUGCAGAUGGAAUUCUCGGGUGCCAA | 0.898 |
| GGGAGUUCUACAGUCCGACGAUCAGCUAUAAACCCGCACUCAGCGCCUGCUCUCCAGACUCUCUCCCAGCCCCACGGGUCCACGAUGUACAAAAUCAUUUUGACCAGCAGGUCUGCAGACCCUUCCCCCACUGUGGAAUUCUCGGGUGCCAA | 0.378 |
| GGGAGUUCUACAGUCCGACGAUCGCCUCAUUUAUCUACAUAACAUUAUUAACUAGAACAUAAUGCUUUCAAAGUUUAAGUUAAUGUUAUAUAUUAUGUAUAAAUAUAUAUAUUCAUAAUGAGAUAUAUGUAAUUGGAAUUCUCGGGUGCCAA | 0.772 |
| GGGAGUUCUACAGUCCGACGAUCUGGGCCCACUGAUUUCCAGCCCCACCAUGUGUGCUGUUUUCAGAUGUGAUUGAGGGGUGUUCUGCCCUGCCUCCACUGUCACAGCCUUUAAUAAAGAUGUGAAUCUUGAAUGGAAUUCUCGGGUGCCAA | 0.3 |

Study 4 — technique: RNA Bind-n-Seq; molecule type: RNA; matrix: in vitro; tested at: 200 nM; notes: whole 134-nt RNA, ends assumed; added: 150 mM LiCl; relative to: input library; reading: higher = stronger binding; each molecule: 7-deaza-guanosine replaces G
Target: Ras GTPase-activating protein-binding protein 1, full length (G3BP1, Homo sapiens, UniProt Q13283)
Chain of UniProt Q13283 (whole entry, looked up): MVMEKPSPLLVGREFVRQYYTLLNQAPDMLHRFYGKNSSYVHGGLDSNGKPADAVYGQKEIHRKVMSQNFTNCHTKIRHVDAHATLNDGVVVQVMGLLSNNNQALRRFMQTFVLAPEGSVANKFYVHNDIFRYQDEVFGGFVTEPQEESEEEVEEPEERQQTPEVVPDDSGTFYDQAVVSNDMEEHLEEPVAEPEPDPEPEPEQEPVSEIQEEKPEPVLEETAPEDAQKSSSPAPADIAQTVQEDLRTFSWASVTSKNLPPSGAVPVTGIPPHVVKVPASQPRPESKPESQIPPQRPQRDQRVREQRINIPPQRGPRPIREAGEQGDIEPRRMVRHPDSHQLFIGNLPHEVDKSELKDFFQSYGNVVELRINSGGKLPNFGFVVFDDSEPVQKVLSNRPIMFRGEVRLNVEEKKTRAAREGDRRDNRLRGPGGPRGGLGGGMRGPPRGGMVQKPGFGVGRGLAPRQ
| Sequence | log2 enrichment |
| --- | --- |
| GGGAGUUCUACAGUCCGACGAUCGUCCUGUGCUACACAUCGUAUGUACCGAAUCGGGCCCCCGGGCCCCCGGGGCCCCCGGAAAGUAUUAUGUUACGCCGUUCGGAUCUGCACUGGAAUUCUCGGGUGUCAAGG | -2.13 |
| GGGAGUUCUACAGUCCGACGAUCCACAGACAACACGCACCCACACAGACACAGAGGGAAGGGGUUGGGAUGGGGACAGGGUGCACAGCAGGGCGGGUUAGGACCCCAGCCCCUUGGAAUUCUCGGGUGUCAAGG | 0.805 |
| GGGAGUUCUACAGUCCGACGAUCUUGUUUAUUCUGUGUCUUUUGCCUCCUUUCCUACAGAUGUCCGGCAGGAUAAUGCUGCUGGCAGAGCUGGCUCCAGUAGCCUUACACAGGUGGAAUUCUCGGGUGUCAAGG | 1.1 |
| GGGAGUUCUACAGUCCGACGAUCACCAUGCAGGUGGGCAUCUUUGGGAAGUGGGGCAAUGGGGGGAUAGGGAGGGGGGUAACACUUUGGGAACAGGUGGUCCCAGGUCGUUUCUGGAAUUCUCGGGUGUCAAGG | 0.348 |
| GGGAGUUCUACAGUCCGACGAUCAAGUCCUGUGCUACACAUCGUAUGUACCGAAUCGGGGCCCGGCCCGGGGCCCGGGGAAAGUAUUAUGUUACGCCGUUCGGAUCUGCACUUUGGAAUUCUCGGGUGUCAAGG | -1.22 |
| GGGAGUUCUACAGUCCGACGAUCGUCCUGUGCUACACAUCGUAUGUACCGAAUCGGUUUUUUUGGUUUUUGGAAAAAAAGGAAAGUAUUAUGUUACGCCGUUCGGAUCUGCACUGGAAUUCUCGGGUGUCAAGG | -1.8 |
| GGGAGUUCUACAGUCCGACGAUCCAAGUCCUGUGCUACACAUCGUAUGUACCGAAUCGGGAAAGGGAAAAAGGGAGGGAAAGUAUUAUGUUACGCCGUUCGGAUCUGCACUUCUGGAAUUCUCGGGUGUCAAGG | 0.0202 |
| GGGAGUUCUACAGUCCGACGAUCCUCAAGUCCUGUGCUACACAUCGUAUGUACCGAAUCGGGGUUGGUUGGGUUGGGAAAGUAUUAUGUUACGCCGUUCGGAUCUGCACUUCCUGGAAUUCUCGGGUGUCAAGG | -0.225 |
| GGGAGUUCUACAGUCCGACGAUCAGUCCUGUGCUACACAUCGUAUGUACCGAAUCGGGAAAAAGGAAAAAGGGGAAAAAGGAAAGUAUUAUGUUACGCCGUUCGGAUCUGCACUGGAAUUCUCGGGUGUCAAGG | -0.475 |
| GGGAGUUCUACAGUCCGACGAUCCAAGUCCUGUGCUACACAUCGUAUGUACCGAAUCGGGGCCCGGGCCCGGGGCCCGGAAAGUAUUAUGUUACGCCGUUCGGAUCUGCACUUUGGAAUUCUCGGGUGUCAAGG | -0.72 |
| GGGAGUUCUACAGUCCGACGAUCAGUCCUGUGCUACACAUCGUAUGUACCGAAUCGGUUUUUGGUUUUUUUGGAAAAAGGAAAGUAUUAUGUUACGCCGUUCGGAUCUGCACUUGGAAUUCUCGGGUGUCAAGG | -1.78 |

For quick reference, copied from above (study 2):
| Sequence | E-score |
| --- | --- |
| CTATCATC | 0.194 |
| ATAGAAAG | 0.169 |
| ACTTTTGG | 0.058 |
| CTTCTCCC | -0.0591 |
| CAAAGGTC | -0.234 |
